Assay results pooled from the literature.
A part holds a random share of what one study measured.
Sequence of UniProt Q9Y2H1 (whole entry, looked up): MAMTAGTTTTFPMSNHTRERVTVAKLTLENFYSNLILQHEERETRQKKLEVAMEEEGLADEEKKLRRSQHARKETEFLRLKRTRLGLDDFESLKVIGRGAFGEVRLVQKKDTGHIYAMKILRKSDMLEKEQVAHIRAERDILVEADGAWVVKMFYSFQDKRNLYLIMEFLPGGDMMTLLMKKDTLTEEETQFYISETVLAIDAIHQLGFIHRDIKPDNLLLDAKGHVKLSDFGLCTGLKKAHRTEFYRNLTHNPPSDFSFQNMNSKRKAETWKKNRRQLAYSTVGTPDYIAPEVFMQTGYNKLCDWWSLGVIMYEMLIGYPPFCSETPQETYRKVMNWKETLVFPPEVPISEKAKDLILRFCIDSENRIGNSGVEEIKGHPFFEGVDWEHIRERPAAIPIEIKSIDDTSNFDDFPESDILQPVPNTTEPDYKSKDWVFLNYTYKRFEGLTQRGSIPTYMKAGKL
Sequence of UniProt Q9UHD2 (whole entry, looked up): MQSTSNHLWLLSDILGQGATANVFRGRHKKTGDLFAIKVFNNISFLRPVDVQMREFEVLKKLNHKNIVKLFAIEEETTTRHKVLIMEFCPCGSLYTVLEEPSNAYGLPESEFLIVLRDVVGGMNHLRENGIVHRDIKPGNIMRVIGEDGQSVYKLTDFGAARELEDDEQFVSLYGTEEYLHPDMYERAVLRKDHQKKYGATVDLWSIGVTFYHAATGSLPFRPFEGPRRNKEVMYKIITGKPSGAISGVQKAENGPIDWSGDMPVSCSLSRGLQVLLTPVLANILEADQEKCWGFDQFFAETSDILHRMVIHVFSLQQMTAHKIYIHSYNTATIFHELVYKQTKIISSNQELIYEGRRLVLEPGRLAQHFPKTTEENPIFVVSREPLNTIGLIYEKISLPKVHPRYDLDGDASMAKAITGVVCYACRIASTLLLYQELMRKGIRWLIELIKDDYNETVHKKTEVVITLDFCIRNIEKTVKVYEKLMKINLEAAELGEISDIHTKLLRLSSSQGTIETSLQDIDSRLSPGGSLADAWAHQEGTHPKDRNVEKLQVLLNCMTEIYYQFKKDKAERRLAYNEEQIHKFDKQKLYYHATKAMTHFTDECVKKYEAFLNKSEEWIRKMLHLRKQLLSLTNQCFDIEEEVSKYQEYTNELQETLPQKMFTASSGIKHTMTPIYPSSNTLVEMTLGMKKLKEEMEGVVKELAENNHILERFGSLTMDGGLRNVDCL
Sequence of UniProt Q00536 (whole entry, looked up): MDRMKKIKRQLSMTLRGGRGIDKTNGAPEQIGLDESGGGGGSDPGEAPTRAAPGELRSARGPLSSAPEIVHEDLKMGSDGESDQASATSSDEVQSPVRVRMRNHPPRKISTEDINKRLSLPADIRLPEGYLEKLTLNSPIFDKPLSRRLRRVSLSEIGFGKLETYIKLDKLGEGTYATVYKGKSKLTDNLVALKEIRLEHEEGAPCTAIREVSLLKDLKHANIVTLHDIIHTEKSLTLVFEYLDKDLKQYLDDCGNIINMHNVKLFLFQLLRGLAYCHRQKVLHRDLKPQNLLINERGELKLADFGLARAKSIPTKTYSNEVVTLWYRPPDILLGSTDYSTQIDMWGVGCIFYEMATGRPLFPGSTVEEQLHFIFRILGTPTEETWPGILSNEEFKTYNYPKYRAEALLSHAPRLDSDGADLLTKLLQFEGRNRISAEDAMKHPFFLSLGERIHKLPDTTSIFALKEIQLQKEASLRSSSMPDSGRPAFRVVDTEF
Sequence of UniProt Q16816 (whole entry, looked up): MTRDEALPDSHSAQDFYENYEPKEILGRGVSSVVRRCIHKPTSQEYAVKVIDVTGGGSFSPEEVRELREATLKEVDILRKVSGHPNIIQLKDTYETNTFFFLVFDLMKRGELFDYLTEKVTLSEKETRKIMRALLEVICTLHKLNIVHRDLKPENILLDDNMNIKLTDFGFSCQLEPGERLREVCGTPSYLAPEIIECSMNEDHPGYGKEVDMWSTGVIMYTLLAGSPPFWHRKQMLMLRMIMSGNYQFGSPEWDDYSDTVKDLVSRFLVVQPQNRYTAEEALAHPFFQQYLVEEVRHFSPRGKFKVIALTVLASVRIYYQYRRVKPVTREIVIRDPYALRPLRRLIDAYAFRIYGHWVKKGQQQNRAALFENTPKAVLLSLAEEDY
Sequence of UniProt Q9HBY8 (whole entry, looked up): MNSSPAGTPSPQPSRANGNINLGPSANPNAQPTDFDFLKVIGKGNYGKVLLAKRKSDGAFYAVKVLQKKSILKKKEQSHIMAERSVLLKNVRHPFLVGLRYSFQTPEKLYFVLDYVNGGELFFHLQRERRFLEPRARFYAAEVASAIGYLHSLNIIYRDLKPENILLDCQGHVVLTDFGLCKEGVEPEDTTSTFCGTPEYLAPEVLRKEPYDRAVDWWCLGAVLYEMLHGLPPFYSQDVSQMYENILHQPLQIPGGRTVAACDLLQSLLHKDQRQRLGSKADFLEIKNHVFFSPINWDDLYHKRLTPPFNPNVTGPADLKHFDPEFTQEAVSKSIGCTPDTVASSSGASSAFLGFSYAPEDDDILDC

Set 1 — cell line: L929; read-out: necroptosis protection; technique: CCK-8; added: TNF-α-induced
SMILES: CC(C)(C)c1nc(-c2cccc(NS(=O)(=O)c3c(F)cccc3F)c2F)c(-c2ccnc(N)n2)s1
For 50 µM: viability read 76.1%.
0.391 µM — viability: 18.8%.
For 1.563 µM: viability read 21.7%.
It gave 69.1% for viability (100 µM).

Set 2 — read-out: cell-free assay; technique: competition with immobilised ligand; concentration: 1 µM
Compound: Cn1cncc1[C@](O)(COc1ccc(C#N)cc1-c1ccc(OC(F)(F)F)cc1)c1ccc(C#N)cc1
For Serine/threonine-protein kinase Sgk2 (SGK2, Homo sapiens, UniProt Q9HBY8): remaining binding read 100%.
The remaining binding was 84% (Receptor-type tyrosine-protein kinase FLT3 (FLT3, Homo sapiens, UniProt P36888, D835H)).
The remaining binding was 100% (Mitogen-activated protein kinase kinase kinase 13 (MAP3K13, Homo sapiens, UniProt O43283)).
The remaining binding was 65% (Serine/threonine-protein kinase 38-like (STK38L, Homo sapiens, UniProt Q9Y2H1)).
For Phosphorylase b kinase gamma catalytic chain, skeletal muscle/heart isoform (PHKG1, Homo sapiens, UniProt Q16816): remaining binding read 63%.
For Cyclin-dependent kinase 16 (CDK16, Homo sapiens, UniProt Q00536): remaining binding read 100%.
For Receptor-type tyrosine-protein kinase FLT3 (FLT3, Homo sapiens, UniProt P36888, ITD): remaining binding read 100%.
For Rho-associated protein kinase 2 (ROCK2, Homo sapiens, UniProt O75116): remaining binding read 94%.

Set 3 — read-out: enzyme activity; mode: inhibitor; concentration: 77 µM; reference: untreated
Target: DNA polymerase theta, ATPase domain (POLQ, Homo sapiens, UniProt O75417)
Sequence of UniProt O75417 (whole entry, unmodified, looked up): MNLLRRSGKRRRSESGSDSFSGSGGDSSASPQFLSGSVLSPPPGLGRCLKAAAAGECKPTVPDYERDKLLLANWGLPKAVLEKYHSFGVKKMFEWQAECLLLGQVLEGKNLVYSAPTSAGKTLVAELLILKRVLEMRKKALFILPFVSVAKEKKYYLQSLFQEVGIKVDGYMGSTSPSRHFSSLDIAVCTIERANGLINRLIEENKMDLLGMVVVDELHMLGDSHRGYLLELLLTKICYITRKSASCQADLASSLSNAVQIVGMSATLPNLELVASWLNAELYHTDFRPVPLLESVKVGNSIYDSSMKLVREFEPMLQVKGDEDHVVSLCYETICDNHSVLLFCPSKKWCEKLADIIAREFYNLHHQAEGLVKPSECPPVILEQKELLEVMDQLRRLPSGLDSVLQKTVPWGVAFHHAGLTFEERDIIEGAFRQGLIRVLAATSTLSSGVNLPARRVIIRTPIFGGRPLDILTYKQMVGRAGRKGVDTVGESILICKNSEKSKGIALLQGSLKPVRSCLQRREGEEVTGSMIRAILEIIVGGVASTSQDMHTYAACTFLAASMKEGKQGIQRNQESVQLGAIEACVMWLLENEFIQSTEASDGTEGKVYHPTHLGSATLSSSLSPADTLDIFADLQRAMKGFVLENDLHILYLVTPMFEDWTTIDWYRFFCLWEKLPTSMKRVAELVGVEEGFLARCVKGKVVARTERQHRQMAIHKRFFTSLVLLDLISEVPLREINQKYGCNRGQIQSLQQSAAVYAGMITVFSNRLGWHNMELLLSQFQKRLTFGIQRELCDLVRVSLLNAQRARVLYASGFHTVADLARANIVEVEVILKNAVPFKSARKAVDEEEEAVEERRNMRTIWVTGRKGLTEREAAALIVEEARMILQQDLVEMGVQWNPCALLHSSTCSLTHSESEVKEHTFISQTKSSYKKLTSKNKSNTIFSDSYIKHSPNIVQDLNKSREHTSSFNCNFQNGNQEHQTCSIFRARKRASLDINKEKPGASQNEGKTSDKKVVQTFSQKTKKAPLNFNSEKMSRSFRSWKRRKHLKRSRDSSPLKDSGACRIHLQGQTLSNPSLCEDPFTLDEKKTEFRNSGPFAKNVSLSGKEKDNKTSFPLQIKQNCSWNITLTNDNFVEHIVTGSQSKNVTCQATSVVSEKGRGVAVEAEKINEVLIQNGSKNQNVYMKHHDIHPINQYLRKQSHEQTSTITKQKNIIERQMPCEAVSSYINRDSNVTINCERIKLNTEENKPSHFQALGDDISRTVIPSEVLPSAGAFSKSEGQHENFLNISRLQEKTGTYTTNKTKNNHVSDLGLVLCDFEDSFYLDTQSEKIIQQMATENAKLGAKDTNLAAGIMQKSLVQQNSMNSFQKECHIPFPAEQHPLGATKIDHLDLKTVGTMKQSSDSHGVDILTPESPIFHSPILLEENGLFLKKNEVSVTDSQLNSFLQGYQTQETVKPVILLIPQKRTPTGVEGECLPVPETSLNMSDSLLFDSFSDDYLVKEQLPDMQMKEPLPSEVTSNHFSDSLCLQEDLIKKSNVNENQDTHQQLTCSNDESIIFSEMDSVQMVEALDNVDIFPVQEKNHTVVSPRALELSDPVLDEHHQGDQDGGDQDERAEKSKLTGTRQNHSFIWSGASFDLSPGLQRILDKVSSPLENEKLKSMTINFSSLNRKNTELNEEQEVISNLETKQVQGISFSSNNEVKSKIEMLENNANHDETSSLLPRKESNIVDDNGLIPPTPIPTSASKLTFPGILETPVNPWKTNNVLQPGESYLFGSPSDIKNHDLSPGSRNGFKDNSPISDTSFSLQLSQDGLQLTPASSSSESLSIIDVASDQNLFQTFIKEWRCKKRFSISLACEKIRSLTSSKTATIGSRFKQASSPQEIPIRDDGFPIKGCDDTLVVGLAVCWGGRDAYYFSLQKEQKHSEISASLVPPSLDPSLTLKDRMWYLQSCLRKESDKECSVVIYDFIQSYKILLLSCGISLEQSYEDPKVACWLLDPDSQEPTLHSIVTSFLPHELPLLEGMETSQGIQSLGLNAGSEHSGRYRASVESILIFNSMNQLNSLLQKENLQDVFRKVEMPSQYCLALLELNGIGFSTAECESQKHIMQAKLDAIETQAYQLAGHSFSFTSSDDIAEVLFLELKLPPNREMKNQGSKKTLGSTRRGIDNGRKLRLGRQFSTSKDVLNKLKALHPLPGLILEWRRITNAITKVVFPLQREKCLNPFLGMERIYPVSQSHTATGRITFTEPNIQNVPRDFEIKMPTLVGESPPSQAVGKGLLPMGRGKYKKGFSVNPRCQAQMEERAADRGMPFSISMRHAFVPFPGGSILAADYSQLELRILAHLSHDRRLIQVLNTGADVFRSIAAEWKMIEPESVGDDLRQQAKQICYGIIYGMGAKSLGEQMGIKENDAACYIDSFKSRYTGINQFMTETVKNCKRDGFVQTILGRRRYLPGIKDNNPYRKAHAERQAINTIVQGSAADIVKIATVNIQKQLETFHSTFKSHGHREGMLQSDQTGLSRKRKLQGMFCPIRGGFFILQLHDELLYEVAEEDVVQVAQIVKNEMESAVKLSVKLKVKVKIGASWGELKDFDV
With `CC(C)NC(C)Cc1ccc(I)cc1` (stereo not drawn) the remaining activity was 101%.
`O=P1(N(CCCl)CCCl)NCCCO1` (stereo not drawn) gave a remaining activity of 96.5%.
`CN(N=O)c1cc(O)ccc1O` has a remaining activity of 101%.
`NC(N)=Nc1ccc2[nH]c3c(c2c1)C[C@@]1(O)[C@H]2Cc4ccc(O)c5c4[C@@]1(CCN2CC1CC1)[C@H]3O5` gave a remaining activity of 106%.
`COC1=C[C@@H]2C3=C([C@@H]2C1=O)[C@@H](NC(C)=O)CCc1cc(OC)c(OC)c(OC)c13` gave a remaining activity of 98.5%.

Single results of other studies
`COC(=O)[C@]1(O)C[C@@H]2O[C@@]1(C)n1c3ccccc3c3c4c(c5c6ccccc6n2c5c31)C(=O)NC4` gave a remaining activity of 5.25% (Serine/threonine-protein kinase TBK1 (TBK1, Homo sapiens, UniProt Q9UHD2); enzyme activity, inhibitor; 0.5 µM; reference: control).

Repeated from above (set 1):
It gave 69.1% for viability (100 µM).
For 1.563 µM: viability read 21.7%.
